# Results from different studies.
# Parts stem from different laboratories: compare values within a part only. Changes are numbered by the printed parent chain.

# Series 1 — method: universal PBM; molecule type: double-stranded DNA, one strand shown; matrix: in vitro; concentration: 600 nM; reading: higher = stronger binding
# Target: Sal-like protein 4, full length isoform A (SALL4, Homo sapiens, UniProt Q9UJQ4, residues 1-1053)
# Chain of UniProt Q9UJQ4 (whole entry, looked up): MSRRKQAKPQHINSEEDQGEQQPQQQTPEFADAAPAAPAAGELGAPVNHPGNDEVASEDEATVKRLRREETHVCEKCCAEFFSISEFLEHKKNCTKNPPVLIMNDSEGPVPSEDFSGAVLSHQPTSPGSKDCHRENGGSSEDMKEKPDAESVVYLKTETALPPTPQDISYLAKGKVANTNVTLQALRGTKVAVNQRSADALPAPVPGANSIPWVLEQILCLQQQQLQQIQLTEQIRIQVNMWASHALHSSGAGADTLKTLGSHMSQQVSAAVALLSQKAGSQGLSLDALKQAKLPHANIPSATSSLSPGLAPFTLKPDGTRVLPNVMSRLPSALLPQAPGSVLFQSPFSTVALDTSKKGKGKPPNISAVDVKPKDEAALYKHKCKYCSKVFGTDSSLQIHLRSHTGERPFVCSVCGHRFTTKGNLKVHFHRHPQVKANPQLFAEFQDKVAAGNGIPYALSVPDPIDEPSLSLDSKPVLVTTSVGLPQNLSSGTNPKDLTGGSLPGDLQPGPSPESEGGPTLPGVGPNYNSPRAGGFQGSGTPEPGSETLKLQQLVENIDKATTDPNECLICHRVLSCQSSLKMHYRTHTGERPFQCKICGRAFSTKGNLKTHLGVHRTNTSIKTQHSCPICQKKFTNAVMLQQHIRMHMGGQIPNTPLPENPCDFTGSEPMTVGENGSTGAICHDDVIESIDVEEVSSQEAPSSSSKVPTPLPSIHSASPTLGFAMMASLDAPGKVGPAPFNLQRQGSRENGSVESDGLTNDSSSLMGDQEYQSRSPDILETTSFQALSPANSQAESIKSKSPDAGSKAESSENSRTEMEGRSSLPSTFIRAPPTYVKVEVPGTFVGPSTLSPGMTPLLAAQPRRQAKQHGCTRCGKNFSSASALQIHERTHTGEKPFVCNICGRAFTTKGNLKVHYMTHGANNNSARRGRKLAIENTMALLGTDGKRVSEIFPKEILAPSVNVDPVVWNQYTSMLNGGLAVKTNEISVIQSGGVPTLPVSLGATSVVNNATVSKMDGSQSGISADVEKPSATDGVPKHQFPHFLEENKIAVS
# Setting: 8-mer, flanks averaged, mean of replicates
Sequence,E-score
ACCCTAAA,-0.00954
AACCTAGC,-0.127
CACTCAGA,0.113
CTTTTTAC,0.166
GTTGAGGA,-0.0743
ACCAAGGC,-0.247
AATCATTC,0.229
CTATGTAC,0.239
ATCTTAGA,0.039
ACAGAGAT,0.19

# Series 2 — method: RNA Bind-n-Seq; molecule type: RNA; matrix: in vitro; concentration: 365 nM; reference: no-protein control; reading: higher = stronger binding
# Target: RNA binding protein fox-1 homolog 2, RRM domain, GST-SBP tag (RBFOX2, Homo sapiens, UniProt O43251-10, residues 100-194)
# Setting: natural RNA segment, single round, ends assumed
# Residues (chain): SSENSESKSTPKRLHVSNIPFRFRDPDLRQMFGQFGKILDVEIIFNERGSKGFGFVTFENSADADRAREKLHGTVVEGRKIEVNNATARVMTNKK
Sequence,RBNS enrichment (R)
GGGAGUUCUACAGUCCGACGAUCUACAAGGUCGCUUAGGCCCCUCUAGUCAGGGAAGAUUUGGGGGUGACAGGCUCCUUAGUCCUCGACACCAAGCUAGUAUGCGUUACCCACCUCCCAUCUGCUGCCCGGAAUGGAAUUCUCGGGUGCCAA,0.253
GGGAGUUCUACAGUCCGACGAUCCUCUUAUUUGGAAGACUAGCAUGACCUUGCUGUUGAUGUGCCCAUGUAGCAGGGUAAAAGAAAAUUCAUUUUCUAACAAAAUACUCACAUUCAUGAUCUACUGUAGGAGAUGGAAUUCUCGGGUGCCAA,2.05
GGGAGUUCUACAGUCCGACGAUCCCCAGGGCAGAUGCUGCCUUUAUCUUCUAUCAUUUGUAUGACGUGGCUGGAUGGAGUUUCUUUUGUAAGGUGCACAACACAUUCUUGACAAAUGUGAGUCUCCUGAUCAAUGGAAUUCUCGGGUGCCAA,0.414
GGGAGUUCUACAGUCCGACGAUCCCUGCCUCAGCCUCCUGAGUAGCUGGGAUGACAGGUGCACGCCACCACGCCCGGCUAAUUUUUAUAUUUUUGGUAGAGAUGGGGUUUCACCAUGCUGGCCAGGCUGGUCUUGGAAUUCUCGGGUGCCAA,0.383
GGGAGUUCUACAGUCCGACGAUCAACAGCCCAGGGGCCUUUAUUUUGGGAAAGGCUGUCCCGGGCUGUUACUGUCUCUUCUGGUUAUAAAGCAGACAUGUGGCCAUCUUUUCCGCAGGGUUAGAGUGGGCUCCUGGAAUUCUCGGGUGCCAA,0.417
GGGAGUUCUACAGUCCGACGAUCAGAGCAACUUAGAAGUAUUUGCAAACUUUUCCAGAACAUUCUCAAAGCCUGUGAUGGAGGAGCACAAGACCCUGUCUGCUGAGGGCCCAUGCUCCUCUCAUGGGUUUCUUUGGAAUUCUCGGGUGCCAA,1.54
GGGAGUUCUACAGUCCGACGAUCCCCCGUGCGAGCGGCACCCCUGCCCUGCCCUCCACAGAAUUGGGUUCCAAGGGCUGUUCCAGACAACUGCCAACGUCACUGAGGGCCCUGCCCCAGCGGCCCUGGCCCCAUGGAAUUCUCGGGUGCCAA,0.213
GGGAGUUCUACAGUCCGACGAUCGCGGUCAUCCUAUCGGCGUGGCCUAGGUCCCUUGUGUGUGUAGCACAUCCCUGCUUUUGACUGAACACUGCACAGAAGCCCCUGAAAUAGGGCCUCUCCCUCGUUGUCAUUGGAAUUCUCGGGUGCCAA,0.272
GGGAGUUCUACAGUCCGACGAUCUGCUCAGAUCCAGUCCACGGGUCCAAGGAUGCUGGAUCCAAGGACUUCUCUUCCACAGUGGCCGGCCCACUCAAUCCCAGGGCCAUUGGCCUCACCCUCCCACCCCAUGUUGGAAUUCUCGGGUGCCAA,0.5
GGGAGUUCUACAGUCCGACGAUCUUUUAAAAGAAAAAACUAUUCAUACCUGGCUUCCAGGUAAUUGACUUUGAAUUCUUACAAGCAAAGGUCAUUGUGUUUUUCUUGAAUAGACAUCUAAUAAAUUUUGCUUGUGGAAUUCUCGGGUGCCAA,0.584
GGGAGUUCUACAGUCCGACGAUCGUUCCCUUCUGCAUCUCUGGCCCUGUGGACAGAACACUUAUUGCUAGGUUAUCUAUCGUGUGGCAGGGCUGGCCAGCACCGUUGGGUCUCACCUGGCAUGAGAUCUGAAGUGGAAUUCUCGGGUGCCAA,1.55
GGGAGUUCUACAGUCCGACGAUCAGAAAAUAUUGCACAAAGGUUUCCCUCAGGAAACCUAGUGCAGAUAGCCAUGGAAGCAUAGCCACUGGAAAGGAACAGUGCAUGAGGCAGAUGUUCGUUUCUGGUGGAAAUGGAAUUCUCGGGUGCCAA,0.85

# Series 3 — method: RNA Bind-n-Seq; molecule type: RNA; matrix: in vitro; concentration: not given; reference: input RNA pool; reading: higher = stronger binding
# Target: RING finger protein unkempt homolog, zinc fingers 1-6, GST-SBP tag (UNK, Homo sapiens, UniProt Q9C0B0, residues 30-357)
# Chain of UniProt Q9C0B0 (30-357, looked up): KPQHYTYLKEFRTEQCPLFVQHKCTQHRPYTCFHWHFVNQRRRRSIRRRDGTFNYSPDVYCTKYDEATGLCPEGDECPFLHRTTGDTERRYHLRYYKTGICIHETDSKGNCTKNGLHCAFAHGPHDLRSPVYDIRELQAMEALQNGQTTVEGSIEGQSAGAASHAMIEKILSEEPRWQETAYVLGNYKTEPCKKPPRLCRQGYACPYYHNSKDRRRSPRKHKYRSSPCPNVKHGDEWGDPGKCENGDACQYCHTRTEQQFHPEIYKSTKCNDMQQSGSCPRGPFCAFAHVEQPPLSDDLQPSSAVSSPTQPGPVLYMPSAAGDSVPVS
# Setting: RNA with constant flanks, human-mouse chimeric sites, ends assumed
Sequence,bound/input enrichment [ratio]
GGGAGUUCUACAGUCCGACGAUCUUGGAAGGACCAGAGCCUAAUCAACUGAAACCAUUAGUCAUACAGGCUAUGCCCACCCUAAUAGAAUUAAUGAAAGACCCCAGUGUAGUUGUUCGAGAUACAGCUGCGUGGACUGUGGGCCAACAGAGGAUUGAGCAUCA,2.47
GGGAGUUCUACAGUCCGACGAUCCUGUGACCACAAGAUCCUACCUGAGUGGCAGCUGAAGUUGACUCCCUCCCCUUCCCUGAACCCCCCCCUUUUGUUCCCCCAUCCCCCAGUGUCGGCUGAGAUGUUGCCUCUGCACGGUUCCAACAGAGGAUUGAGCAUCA,1.32
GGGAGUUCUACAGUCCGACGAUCGUUCGACUCUGGGAUCAUGCCACAAUGACAGAAGUGAAAUCUCUAAAUUUUAAUAUGUCUGUUAGCAGCAUGGAGUAUAUUCCUGAAGGAGAGAUUUUGGUUAUUACUUAUGGACGAUCUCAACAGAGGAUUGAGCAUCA,0.253
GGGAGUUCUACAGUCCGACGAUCUUGAAAACUGAUUCAAGUAAGUUUGAGUAUCACAAUGUUAGCUUUCUAAUUCCACACAAGUACUUGGUACAGUUUCUUUAUAAUCUGACAUCACCCCAGCGCCAUUUGUAAAGAGCAACUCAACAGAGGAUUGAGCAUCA,0.912
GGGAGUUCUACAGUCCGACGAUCGUAUACGGUUAUCGAGGAAAGGACUGUAGAGCGAAUGUAUACCUGCUUCCCACAGGGAAAAUAGUUUAUUUUAUCGCCUCAGUGGUAGUACUAUUUAAUUAUGAGGAGAGGACUCAGCGACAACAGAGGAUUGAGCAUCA,5.9
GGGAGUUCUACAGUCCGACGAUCCUGAAAAACACAGAUAUCAAAGUUGUUGACUUUGGAAGUGCAACAUAUGACGACGAACAUCACAGUACUUUGGUGUCUACCCGGCACUACAGAGCUCCCGAGGUCAUUUUGGCUUUAGGUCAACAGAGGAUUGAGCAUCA,0.284
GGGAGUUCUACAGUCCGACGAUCGUGACUGGUGUUAAGAUUUCCCCUCAGCAAAGAAGUGUAGCAGUGACCAUAAUUCCAUCUGUGGUGAAUGCCAAUCAGAUUGUGGAGCUGGUCCCAGACCUCAGUUUAGACAUGGGAACUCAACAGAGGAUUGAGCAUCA,0.391
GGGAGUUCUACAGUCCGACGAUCUCUUUAAAAAAAAAAUUACAGGAAAAUACAGUGCUUUCCCUCCCAUAGGUCCAGGUUCAAGCUCAAAGAGCAAAGGCUUUGCACGGAGCUCAAACAUCUGAUGAAGAAAGAUUUCUGAGACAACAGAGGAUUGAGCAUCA,0.71

# Series 4 — method: DHFR PCA, deep sequencing; matrix: yeast; together with: (+)-ABA 710 µM; reference: wild-type fitted maximum; reading: higher = stronger binding
# Target: ABI1, truncated, D143A, DHFR fusion (Arabidopsis thaliana)
# Setting: methotrexate growth selection, single substitutions
# Parent: PYL1, truncated, DHFR fusion (Arabidopsis thaliana); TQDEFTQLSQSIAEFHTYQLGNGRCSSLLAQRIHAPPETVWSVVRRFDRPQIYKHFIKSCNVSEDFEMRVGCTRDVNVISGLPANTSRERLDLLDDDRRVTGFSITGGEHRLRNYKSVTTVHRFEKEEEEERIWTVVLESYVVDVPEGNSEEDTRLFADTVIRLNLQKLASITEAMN
Change,relative binding score [%]
T120E,43.7
P83M,44
G108H,53.3
A30L,101
L164E,88.1
N85D,99.8
A35L,49.3
R99D,19.9
K116Q,89.9
E125C,106
A35G,88.6
Y141C,36.7
L156W,97.8
A175L,94.5
V62Y,86.7
S140W,27.3
L169H,6.58
V40K,-36.3
H122W,12.7

# Series 5 — method: protein binding microarray; molecule type: double-stranded DNA, one strand shown; matrix: in vitro; concentration: not given; reference: not given; reading: higher = stronger binding
# Target: Histone acetyltransferase KAT6A, winged helix 2, GST fusion (KAT6A, Homo sapiens, UniProt Q92794, residues 85-181)
# Setting: 8-mer, flanks averaged, mean of 2 arrays, mostly near background
# Target sequence (chain): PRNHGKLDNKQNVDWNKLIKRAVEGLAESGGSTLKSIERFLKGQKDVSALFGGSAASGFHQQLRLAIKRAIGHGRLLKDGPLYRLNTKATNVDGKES
Sequence,E-score
GTTTTTCA,0.0398
GGCCCATA,-0.0819
CGACTTCC,-0.0934
CGGCATCA,0.178
TCTCGCCA,0.00311
TACCTATA,-0.319
CACATCTA,-0.0998
ACTCGGAC,0.156
CAATTTCA,0.00522
GTCTTCTA,-0.115
AAGATGTG,-0.0699
CTTTTTCA,-0.00751
CCTTGTAG,-0.065
AATGACTA,-0.246
CGCCCAGA,0.0217
GCATCCTA,-0.0689
GACTAGTC,-0.172
CAAATAAG,-0.1
CCCTACAG,-0.139
GGCACTTA,-0.0118
CTAGGGAG,-0.0326
AACAGGAC,-0.0838
CCATCGAG,0.0565
ACCGAAGG,0.0717

# Excerpt of the above (series 3):
Sequence,bound/input enrichment [ratio]
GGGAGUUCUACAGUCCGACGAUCGUAUACGGUUAUCGAGGAAAGGACUGUAGAGCGAAUGUAUACCUGCUUCCCACAGGGAAAAUAGUUUAUUUUAUCGCCUCAGUGGUAGUACUAUUUAAUUAUGAGGAGAGGACUCAGCGACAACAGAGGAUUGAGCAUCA,5.9
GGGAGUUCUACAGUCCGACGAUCCUGAAAAACACAGAUAUCAAAGUUGUUGACUUUGGAAGUGCAACAUAUGACGACGAACAUCACAGUACUUUGGUGUCUACCCGGCACUACAGAGCUCCCGAGGUCAUUUUGGCUUUAGGUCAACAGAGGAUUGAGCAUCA,0.284
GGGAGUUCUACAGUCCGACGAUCGUGACUGGUGUUAAGAUUUCCCCUCAGCAAAGAAGUGUAGCAGUGACCAUAAUUCCAUCUGUGGUGAAUGCCAAUCAGAUUGUGGAGCUGGUCCCAGACCUCAGUUUAGACAUGGGAACUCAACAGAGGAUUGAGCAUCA,0.391
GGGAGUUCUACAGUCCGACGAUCUCUUUAAAAAAAAAAUUACAGGAAAAUACAGUGCUUUCCCUCCCAUAGGUCCAGGUUCAAGCUCAAAGAGCAAAGGCUUUGCACGGAGCUCAAACAUCUGAUGAAGAAAGAUUUCUGAGACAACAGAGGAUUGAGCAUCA,0.71
